# Assay results collected from several papers.
# Numbers after ± are the reported error.
# DRD2: D(2) dopamine receptor (DRD2, Homo sapiens, UniProt P14416)
# Sequence of UniProt P14416 (whole entry, looked up): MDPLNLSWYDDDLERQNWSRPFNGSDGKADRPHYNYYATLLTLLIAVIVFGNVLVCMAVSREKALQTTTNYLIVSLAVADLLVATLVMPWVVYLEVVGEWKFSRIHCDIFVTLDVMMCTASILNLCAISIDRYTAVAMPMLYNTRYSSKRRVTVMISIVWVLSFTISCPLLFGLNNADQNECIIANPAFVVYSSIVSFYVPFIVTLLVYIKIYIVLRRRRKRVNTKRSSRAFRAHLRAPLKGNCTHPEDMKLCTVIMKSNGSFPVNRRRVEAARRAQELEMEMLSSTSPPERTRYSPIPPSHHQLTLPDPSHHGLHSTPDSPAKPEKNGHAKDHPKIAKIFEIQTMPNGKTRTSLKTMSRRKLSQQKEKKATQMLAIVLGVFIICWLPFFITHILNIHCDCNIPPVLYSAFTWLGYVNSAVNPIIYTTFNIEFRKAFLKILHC
Compound,target,assay,system,conditions,measurement,value
CC[C@]12CCCN3CCc4c([nH]c5ccccc45)[C@]31N(Cc1cn(Cc3ccccc3)nn1)C(=O)C2,"D(2) dopamine receptor, long isoform (DRD2, Homo sapiens, UniProt P14416)","beta-arrestin recruitment, antagonist, PathHunter chemiluminescence",,"20 µM, together with: agonist at EC80",inhibition,15%
COc1cc2c(cc1OC)C(=O)C(CC1CCN(Cc3ccccc3)CC1)C2 (stereo not drawn),DRD2,radioligand binding,,"10 µM, together with: [3H]N-methylspiperone",inhibition,18.6%
OCCCN1CC[C@@H]2C[C@H]1c1cc(-c3ccc(C(F)(F)F)cc3)ccc12,DRD2,"radioligand binding, PDSP competition binding",,10 µM,inhibition,< 50%
O=C(NO)c1ccc(CN2CCCCc3ccccc32)c(F)c1,DRD2,"radioligand binding, radioligand displacement",,"10 µM, mean of replicates",inhibition,-4.77%
Cc1cc(F)cc2c(CCC(=O)N[C@@H]3C(=O)NC[C@H]3O)c(-c3ccc(F)cc3)[nH]c12,DRD2,binding,,10 µM,inhibition,-9%
Ic1cccc2cnccc12,DRD2,"binding, radioligand binding",,10 µM,inhibition,-2%
Oc1cccc(Nc2nc(-c3ccc(F)cc3F)cs2)c1,DRD2,,,10 µM,inhibition,-5.7%
CCN(Cc1ccccc1C(F)(F)F)C(=O)C1CCN(S(=O)(=O)c2ccc3[nH]ncc3c2)CC1,DRD2,radioligand binding,,10 µM,inhibition,6%
Cc1cc2c(N3CCN(CCCCOc4ccc5c(c4)NC(=O)CC5)CC3)cccc2n1C,DRD2,"Gi/o activation, agonist, cAMP GloSensor inhibition",human cells,,log(τ/KA),7.75 ± 0.07
COc1cc(NC(C)=O)c(Cl)cc1C(=O)Nc1nccs1,DRD2,,,10 µM,inhibition,-2.3%
Cc1cc2c(N3CCN(CCCCOc4ccc5c(c4)NC(=O)CC5)CC3)cccc2[nH]1,DRD2,"Gi/o activation, agonist, cAMP GloSensor inhibition",human cells,,log(τ/KA),9.25 ± 0.05
CCN1CCCC1CNC(=O)c1cc(S(N)(=O)=O)ccc1OC (stereo not drawn),DRD2,"β-arrestin recruitment, antagonist, Schild analysis",,together with: dopamine,Schild slope,0.678 ± 0.026

# A few entries again:
Compound,target,assay,system,conditions,measurement,value
OCCCN1CC[C@@H]2C[C@H]1c1cc(-c3ccc(C(F)(F)F)cc3)ccc12,DRD2,"radioligand binding, PDSP competition binding",,10 µM,inhibition,< 50%
O=C(NO)c1ccc(CN2CCCCc3ccccc32)c(F)c1,DRD2,"radioligand binding, radioligand displacement",,"10 µM, mean of replicates",inhibition,-4.77%
